Experimental data from different studies.
Each line is one published result; not all experiments were run side by side. ± gives the spread as reported.
Organism: Plasmodium falciparum

`CC[C@H](C)[C@H](NC(=O)[C@@H](NC(=O)[C@H](Cc1ccc(O)cc1)NC(=O)[C@H](CCCCN)NC(=O)[C@H](CCCCN)NC(=O)[C@H](CC(C)C)NC(=O)[C@H](CC(=O)O)NC(=O)[C@H](Cc1ccc(O)cc1)NC(=O)[C@H](CCC(N)=O)NC(=O)[C@H](CCCCN)NC(=O)[C@@H](NC(=O)[C@H](Cc1ccccc1)NC(=O)[C@H](CCCCN)NC(=O)[C@H](CCCCN)NC(=O)[C@H](Cc1c[nH]c2ccccc12)NC(=O)[C@H](CCCCN)NC(=O)[C@H](CCSC)NC(=O)[C@H](CCCNC(=N)N)NC(=O)[C@H](CCCNC(=N)N)NC(=O)[C@H](CC(N)=O)NC(=O)[C@H](CCC(N)=O)NC(=O)[C@H](Cc1ccccc1)NC(=O)[C@H](Cc1c[nH]c2ccccc12)NC(=O)[C@@H](NC(=O)[C@H](CCCCN)NC(=O)[C@@H](NC(=O)[C@H](CCC(N)=O)NC(=O)[C@@H](N)CCCNC(=N)N)[C@@H](C)CC)[C@@H](C)CC)[C@@H](C)CC)[C@@H](C)CC)C(=O)O` gave an EC50 of about 50000 nM (parasite growth; 3D7; 24 h, early trophozoite stage).
For `COC(=O)c1[nH]c(C(=O)OC)c2c1-c1c[nH]c3ccc(Cl)c(c13)C21CNc2ccc(Cl)cc21` (racemic), the EC50 was 7100 nM (parasite growth, SYBR Green; DD2; 72 h, drug-resistant strain, blood stage).
With `CC(C)C[C@@H](NC(=O)[C@@H](C)NC(=O)[C@@H](CC(C)C)NC(=O)[C@@H](CCCCN)NC(=O)[C@@H](CCCCN)NC(=O)[C@@H](CC(C)C)NC(=O)[C@@H](C)NC(=O)[C@H]1CCCN1C(=O)[C@@H](CC(C)C)NC(=O)[C@@H](Cc1c[nH]c2ccccc12)NC(=O)[C@@H](CCCCN)NC(=O)[C@@H](CCCCN)NC(=O)[C@@H](CC(C)C)NC(=O)[C@@H](C)NC(=O)[C@@H](CC(C)C)NC(=O)[C@@H](CC(C)C)NC(=O)[C@@H](C)NC(=O)[C@@H](CC(C)C)NC(=O)[C@@H](CCCCN)NC(=O)[C@H](N)CCCCN)C(=O)N[C@H](CC(C)C)C(=O)N[C@H](C)C(=O)N[C@H](CC(C)C)C(=O)N[C@H](CCCCN)C(=O)N[C@H](CCCCN)C(N)=O` the EC50 was 2180 ± 410 nM (SYBR Green fluorescence; C10; 48 h, 37 °C).
For `O=C1C2=C(Nc3ccccc3SC2c2ccc(O)c(O)c2)c2ccccc21` (racemic), the EC50 was over 5000 nM (growth, hypoxanthine uptake; Dd2 expressing yeast DHOD).
The EC50 of `CC[C@H](C)[C@H](NC(=O)[C@H](CC(C)C)NC(=O)[C@H](CCC(N)=O)NC(=O)[C@@](C)(CC)NC(C)=O)C(=O)NC(C)(C)C(=O)N1CCC[C@H]1C(=O)N[C@](C)(CC)C(=O)N[C@@H](CC(C)C)C(=O)NC(C)(C)C(=O)N1CCC[C@H]1C(=O)N[C@H](CO)CC(C)C` is reported as 100 nM (parasite growth; DD2; drug-resistant strain).
For `CC[C@]12CCCN3CC[C@]4(C(=O)c5ccccc5N4C(=O)C1)[C@@H]32`, the EC50 was 4940 nM (parasite growth, SYBR Green; DD2; drug-resistant strain, blood stage).
`CC(C)C[C@@H](NC(=O)[C@@H](C)NC(=O)[C@@H](CC(C)C)NC(=O)[C@@H](CCCCN)NC(=O)[C@H](N)CCCCN)C(=O)N[C@H](Cc1c[nH]cn1)C(=O)N[C@H](C)C(=O)N[C@H](CC(C)C)C(=O)N[C@H](CCCCN)C(=O)N[C@H](CCCCN)C(=O)N[C@H](Cc1c[nH]c2ccccc12)C(=O)N[C@H](CC(C)C)C(=O)N[C@H](Cc1c[nH]cn1)C(=O)N[C@H](C)C(=O)N[C@H](CC(C)C)C(=O)N[C@H](CCCCN)C(=O)N[C@H](CCCCN)C(=O)N[C@H](CC(C)C)C(=O)N[C@H](C)C(=O)N[C@H](Cc1c[nH]cn1)C(=O)N[C@H](CC(C)C)C(=O)N[C@H](C)C(=O)N[C@H](CC(C)C)C(=O)N[C@H](CCCCN)C(=O)N[C@H](CCCCN)C(N)=O` has an EC50 of 1260 ± 140 nM (SYBR Green fluorescence; 3D7; 48 h, 37 °C).
With `COc1ccc(C2Sc3ccccc3NC3=C2C(=O)c2ccccc23)cc1` (racemic) the EC50 was 1120 nM (growth, [3H]hypoxanthine incorporation; Dd2).
`OC(CN1CCC2(CC1)CC(O)c1ccc3ccccc3c1O2)c1ccc(F)c(F)c1` (stereo not drawn) gave an EC50 of 350 nM (parasite growth, SYBR Green; DD2; 72 h, drug-resistant strain, blood stage).

Repeated from above:
For `CC[C@]12CCCN3CC[C@]4(C(=O)c5ccccc5N4C(=O)C1)[C@@H]32`, the EC50 was 4940 nM (parasite growth, SYBR Green; DD2; drug-resistant strain, blood stage).
